Experimental data pooled from the literature.
Parts stem from different laboratories: compare values within a part only.

Series 1
Target: Histone acetyltransferase KAT6A, winged helix 1, GST fusion (KAT6A, Homo sapiens, UniProt Q92794, residues 1-85)
Technique: protein binding microarray
Molecule type: double-stranded DNA, one strand shown
Medium: in vitro
Concentration: not given
Notes: 8-mer, flanks averaged, mean of 2 arrays, mostly near background
Relative to: not given
Direction: higher = stronger binding
Quantity: E-score
Target sequence (chain): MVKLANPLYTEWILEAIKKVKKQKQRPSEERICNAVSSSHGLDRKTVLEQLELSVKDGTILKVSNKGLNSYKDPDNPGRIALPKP
CTAGCGAG: -0.00553
GCCGTAAC: 0.429
CGTTGTAC: -0.0258
GAATGCTC: -0.0644
CCGAGCTC: 0.0362

Series 2
Target: PABPC1L2, full length, GST fusion (mouse, UniProt A0ABA7IW68)
Technique: RNAcompete
Molecule type: RNA
Medium: in vitro
Concentration: 20 nM
Notes: 7-mer, probes averaged, single round
Relative to: mean of 7-mers
Direction: higher = stronger binding
Quantity: 7-mer Z-score
Target sequence (chain): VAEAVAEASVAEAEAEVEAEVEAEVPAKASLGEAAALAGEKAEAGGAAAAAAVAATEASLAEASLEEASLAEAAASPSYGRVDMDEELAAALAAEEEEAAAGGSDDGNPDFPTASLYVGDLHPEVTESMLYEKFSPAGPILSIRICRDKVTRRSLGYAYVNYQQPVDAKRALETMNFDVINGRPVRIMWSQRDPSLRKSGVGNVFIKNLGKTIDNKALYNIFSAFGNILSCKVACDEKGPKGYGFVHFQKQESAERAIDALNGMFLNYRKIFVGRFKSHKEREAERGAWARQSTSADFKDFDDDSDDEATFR
CGAGGUG: 0.157
GCCCGAC: -0.298
GGUAGUG: -0.135
GUCUCCA: -0.309
GAUCUUU: -0.11

Series 3
Target: Interferon regulatory factor 5, full length, phosphomimetic (IRF5, Homo sapiens, UniProt Q13568-2, residues 1-514, S451D/S453D/S456D/S462D)
Technique: protein-binding microarray
Molecule type: double-stranded DNA, one strand shown
Medium: in vitro
Concentration: 940 nM top
Notes: 60-bp whole probe
Together with: salmon DNA 0.4 mg/ml
Relative to: random background probes
Direction: higher = stronger binding
Quantity: fitted relative affinity
GCCTAGCACTGCCATATTTATCTGCAAAGGTGCTAGGTCTTGATTCGCTTGACGCTGCTG: 0.0785 z-score
GCCTAGCACGACGAACTGAGTATCGCGACGTGCTAGGTCTTGATTCGCTTGACGCTGCTG: -0.0993 z-score
GCCTAGCACGACGATTTCAGCTCCGAGACGTGCTAGGTCTTGATTCGCTTGACGCTGCTG: -0.341 z-score
GCCTAGCACGACGGTCTCCATATCCTGACGTGCTAGGTCTTGATTCGCTTGACGCTGCTG: 0.179 z-score

Mixed results
PhoQ, residues 284 288 289 292 302 303 TASMAF  fold induction (PhoP, residues 12 14 15 18 19 YHFSH (Escherichia coli, UniProt P23836); Sort-seq, refers to: YFP reporter; E. coli; PhoQ-PhoP variant library, together with: 10 µM Mg2+; relative to: high Mg2+ state, higher = stronger signaling): 6.24

For quick reference, copied from above (series 1):
CTAGCGAG: -0.00553
